Measured values collected from several papers.
Lines come from different studies, so protocols differ. Numbers after ± are the reported error.
Sequence of UniProt Q8NET8 (whole entry, unmodified, looked up): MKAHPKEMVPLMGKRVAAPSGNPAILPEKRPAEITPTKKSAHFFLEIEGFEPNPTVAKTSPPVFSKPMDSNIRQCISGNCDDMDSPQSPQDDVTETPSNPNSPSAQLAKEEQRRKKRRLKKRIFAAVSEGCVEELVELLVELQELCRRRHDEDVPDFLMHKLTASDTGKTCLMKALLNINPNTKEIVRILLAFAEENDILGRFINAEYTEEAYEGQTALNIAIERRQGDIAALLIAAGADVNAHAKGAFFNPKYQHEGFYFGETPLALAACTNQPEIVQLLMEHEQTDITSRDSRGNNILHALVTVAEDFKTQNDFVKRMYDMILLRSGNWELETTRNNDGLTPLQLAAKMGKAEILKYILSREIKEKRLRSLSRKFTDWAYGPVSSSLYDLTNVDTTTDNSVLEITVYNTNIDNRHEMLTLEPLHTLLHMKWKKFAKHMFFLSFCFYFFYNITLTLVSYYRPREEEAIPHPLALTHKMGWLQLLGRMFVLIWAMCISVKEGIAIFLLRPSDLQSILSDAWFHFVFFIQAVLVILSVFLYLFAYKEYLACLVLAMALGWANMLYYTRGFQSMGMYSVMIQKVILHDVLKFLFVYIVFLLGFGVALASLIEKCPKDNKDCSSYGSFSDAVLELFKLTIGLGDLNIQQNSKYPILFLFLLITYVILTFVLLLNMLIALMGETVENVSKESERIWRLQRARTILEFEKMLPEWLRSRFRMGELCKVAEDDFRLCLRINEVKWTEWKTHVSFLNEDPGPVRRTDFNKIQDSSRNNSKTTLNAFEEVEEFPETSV
Sequence of UniProt P51531 (whole entry, looked up): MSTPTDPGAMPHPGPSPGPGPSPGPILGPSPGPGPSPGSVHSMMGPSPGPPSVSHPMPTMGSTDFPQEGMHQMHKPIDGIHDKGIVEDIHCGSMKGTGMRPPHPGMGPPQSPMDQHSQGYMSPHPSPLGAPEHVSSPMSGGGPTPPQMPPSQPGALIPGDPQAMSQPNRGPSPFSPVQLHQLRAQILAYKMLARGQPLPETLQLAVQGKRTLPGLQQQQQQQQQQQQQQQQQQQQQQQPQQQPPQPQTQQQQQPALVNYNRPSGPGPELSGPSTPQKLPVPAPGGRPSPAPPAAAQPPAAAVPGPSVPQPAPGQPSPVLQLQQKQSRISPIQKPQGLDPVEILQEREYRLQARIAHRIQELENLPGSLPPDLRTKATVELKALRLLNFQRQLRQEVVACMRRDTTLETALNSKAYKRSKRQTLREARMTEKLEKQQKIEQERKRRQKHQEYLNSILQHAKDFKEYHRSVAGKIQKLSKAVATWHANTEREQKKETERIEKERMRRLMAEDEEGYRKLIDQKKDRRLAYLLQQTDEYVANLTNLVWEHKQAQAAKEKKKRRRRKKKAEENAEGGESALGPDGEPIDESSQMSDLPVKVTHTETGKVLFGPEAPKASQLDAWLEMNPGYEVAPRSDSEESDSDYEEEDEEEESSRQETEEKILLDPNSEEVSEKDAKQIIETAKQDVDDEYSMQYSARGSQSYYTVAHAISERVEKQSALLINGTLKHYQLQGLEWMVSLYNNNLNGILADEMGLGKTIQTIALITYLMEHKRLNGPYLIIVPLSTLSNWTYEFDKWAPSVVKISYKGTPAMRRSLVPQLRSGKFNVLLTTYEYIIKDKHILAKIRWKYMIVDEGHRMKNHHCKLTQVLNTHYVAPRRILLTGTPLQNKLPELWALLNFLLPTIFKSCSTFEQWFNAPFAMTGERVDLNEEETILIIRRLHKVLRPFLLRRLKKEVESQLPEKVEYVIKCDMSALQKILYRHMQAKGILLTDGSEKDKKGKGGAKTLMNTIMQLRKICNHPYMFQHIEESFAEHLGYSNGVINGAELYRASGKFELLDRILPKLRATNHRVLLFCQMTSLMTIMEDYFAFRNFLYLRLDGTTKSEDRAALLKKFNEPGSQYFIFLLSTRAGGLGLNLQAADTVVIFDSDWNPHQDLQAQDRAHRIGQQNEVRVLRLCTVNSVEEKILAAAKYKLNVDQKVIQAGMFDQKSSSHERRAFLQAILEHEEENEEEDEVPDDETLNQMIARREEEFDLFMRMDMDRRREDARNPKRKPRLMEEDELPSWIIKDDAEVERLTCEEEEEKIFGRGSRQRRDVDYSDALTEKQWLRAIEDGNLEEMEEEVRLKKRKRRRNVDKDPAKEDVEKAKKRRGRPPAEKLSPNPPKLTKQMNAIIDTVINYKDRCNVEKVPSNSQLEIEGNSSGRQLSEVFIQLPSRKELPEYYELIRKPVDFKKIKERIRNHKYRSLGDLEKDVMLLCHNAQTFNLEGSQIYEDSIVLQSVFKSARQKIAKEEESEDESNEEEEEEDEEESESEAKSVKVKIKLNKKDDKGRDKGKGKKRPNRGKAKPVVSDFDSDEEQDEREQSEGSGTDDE
Sequence of UniProt P09668 (whole entry, looked up): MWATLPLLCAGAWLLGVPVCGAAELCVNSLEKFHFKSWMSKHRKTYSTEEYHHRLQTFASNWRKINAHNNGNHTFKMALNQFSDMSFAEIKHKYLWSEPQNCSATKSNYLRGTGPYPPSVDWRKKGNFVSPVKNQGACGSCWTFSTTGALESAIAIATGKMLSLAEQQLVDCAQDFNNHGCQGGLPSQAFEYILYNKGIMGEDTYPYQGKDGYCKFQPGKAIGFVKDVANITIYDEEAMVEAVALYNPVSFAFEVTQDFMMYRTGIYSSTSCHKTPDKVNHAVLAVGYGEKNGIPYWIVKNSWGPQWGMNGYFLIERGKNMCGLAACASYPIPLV
Sequence of UniProt Q8GME2 (whole entry, looked up): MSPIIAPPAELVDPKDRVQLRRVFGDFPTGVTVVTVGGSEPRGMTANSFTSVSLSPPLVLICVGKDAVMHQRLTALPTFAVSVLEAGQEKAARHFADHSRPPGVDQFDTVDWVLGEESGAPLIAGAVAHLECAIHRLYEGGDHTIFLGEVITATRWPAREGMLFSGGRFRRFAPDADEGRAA
Sequence of UniProt Q9UQQ2 (whole entry, looked up): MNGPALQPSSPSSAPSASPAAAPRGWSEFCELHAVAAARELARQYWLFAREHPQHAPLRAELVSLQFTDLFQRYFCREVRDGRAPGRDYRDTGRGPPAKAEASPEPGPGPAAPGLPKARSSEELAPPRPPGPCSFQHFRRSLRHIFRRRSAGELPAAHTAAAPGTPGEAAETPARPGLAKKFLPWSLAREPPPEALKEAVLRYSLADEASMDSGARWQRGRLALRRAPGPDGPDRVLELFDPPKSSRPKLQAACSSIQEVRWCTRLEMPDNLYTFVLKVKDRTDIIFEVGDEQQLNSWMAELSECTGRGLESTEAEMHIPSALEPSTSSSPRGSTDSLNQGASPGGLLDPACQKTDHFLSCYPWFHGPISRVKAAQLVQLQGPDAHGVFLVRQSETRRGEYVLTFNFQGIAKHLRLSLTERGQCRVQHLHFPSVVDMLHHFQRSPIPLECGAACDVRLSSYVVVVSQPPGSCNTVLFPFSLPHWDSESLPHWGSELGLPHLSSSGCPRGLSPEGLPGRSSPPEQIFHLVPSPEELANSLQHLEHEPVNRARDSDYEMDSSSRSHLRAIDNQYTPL
Sequence of UniProt Q15464 (whole entry, looked up): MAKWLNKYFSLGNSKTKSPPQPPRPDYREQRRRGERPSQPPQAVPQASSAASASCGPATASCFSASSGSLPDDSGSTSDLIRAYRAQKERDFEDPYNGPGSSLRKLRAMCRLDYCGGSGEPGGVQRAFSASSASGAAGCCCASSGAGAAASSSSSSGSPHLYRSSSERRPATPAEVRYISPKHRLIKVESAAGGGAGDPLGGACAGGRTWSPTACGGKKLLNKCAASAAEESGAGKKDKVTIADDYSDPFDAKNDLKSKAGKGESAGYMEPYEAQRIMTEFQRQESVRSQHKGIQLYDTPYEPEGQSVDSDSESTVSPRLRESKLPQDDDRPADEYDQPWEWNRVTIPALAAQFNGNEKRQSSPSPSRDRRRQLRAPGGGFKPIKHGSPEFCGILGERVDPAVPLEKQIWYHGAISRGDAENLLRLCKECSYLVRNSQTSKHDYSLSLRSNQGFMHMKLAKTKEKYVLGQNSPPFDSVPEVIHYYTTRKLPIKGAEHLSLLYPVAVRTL

N[C@@H]1C[C@H]1c1ccccc1 gave a Ki of 17 ± 3 µM (tyramine oxidase Arthrobacter sp.; inhibitor).
For COc1cc(Nc2ncc(F)c(Nc3ccc4c(n3)NC(=O)C(C)(C)O4)n2)cc(OC)c1OC, the IC50 was over 10 µM (Pro-cathepsin H (Homo sapiens, UniProt P09668)).
CCCc1cc(O)c2c(c1)OC(C)(C)[C@@H]1CCC(C)=C[C@@H]21 gave an EC50 of 2.66 ± 0.15 µM (Transient receptor potential cation channel subfamily V member 3 (TRPV3, Homo sapiens, UniProt Q8NET8, L420A); calcium uptake, agonist; HEK293S; mutant L420A, site 3).
Cc1cc2nc3c(=O)[nH]c(=O)nc-3n(C[C@H](O)[C@H](O)[C@H](O)COP(=O)(O)OP(=O)(O)OC[C@H]3O[C@@H](n4cnc5c(N)ncnc54)[C@H](O)[C@@H]3O)c2cc1C has a Km of 8.2 ± 0.9 µM (NADH-dependent FAD reductase (sgcE6, Streptomyces globisporus, UniProt Q8GME2); substrate).
The IC50 of c1ccc2c(NCCCCCCCNc3c4c(nc5ccccc35)CCCC4)c3c(nc2c1)CCCC3 is reported as 0.005 µM (AChE (Phlebotomus papatasi, UniProt M1F887); enzyme activity, inhibitor).
With CSCC[C@H](NC(=O)CNC(=O)[C@H](Cc1ccccc1)NC(=O)[C@H](CC(=O)O)NC(=O)CNC(=O)c1ccc2c(c1)C(=O)OC21c2ccc(N(C)C)cc2Oc2cc(N(C)C)ccc21)C(=O)N[C@@H](CO)C(=O)N[C@@H](CCCNC(=N)N)C(=O)N[C@@H](CC(=O)O)C(=O)N[C@H](C(=O)N[C@@H](Cc1ccc(OP(=O)(O)O)cc1)C(=O)N[C@@H](CO)C(=O)N[C@H](C(=O)N[C@@H](CC(=O)O)C(=O)N[C@@H](Cc1ccc(O)cc1)C(=O)N[C@@H](Cc1ccc(O)cc1)C(=O)N[C@@H](CCCNC(=N)N)C(=O)N[C@H](C(=O)N[C@@H](CC(=O)O)C(=O)O)C(C)C)[C@@H](C)O)C(C)C the Kd was 0.786 µM (SH2B3, SH2 domain (Homo sapiens, UniProt Q9UQQ2); binding).
For Cc1ncsc1-c1ccc(CNC(=O)[C@@H]2C[C@@H](O)CN2C(=O)[C@@H](NC(=O)C2(F)CC2)C(C)(C)C)c(OCCOc2ccc(CN3CCN(c4cc(-c5ccccc5O)nnc4N)CC3)cc2)c1, the DC50 was 0.0111 µM (SWI/SNF-related matrix-associated actin-dependent regulator of chromatin subfamily A member 2 (SMARCA2, Homo sapiens, UniProt P51531); degrader, immunoblot; SMARCA4 wild-type cells; 96 h, median of twelve cell lines).
For CC[C@H](C)[C@H](NC(=O)[C@H](Cc1ccc(OP(=O)(O)O)cc1)NC(=O)[C@H](CCC(=O)O)NC(=O)[C@H](Cc1c[nH]cn1)NC(=O)CNC(=O)[C@H](CC(=O)O)NC(=O)[C@H](CO)NC(=O)[C@H](CO)NC(=O)[C@@H](NC(=O)[C@H](CO)NC(=O)[C@H](CCC(=O)O)NC(=O)c1ccc2c(c1)C(=O)OC21c2ccc(N(C)C)cc2Oc2cc(N(C)C)ccc21)C(C)C)C(=O)N[C@@H](Cc1ccc(O)cc1)C(=O)N[C@H](C(=O)N[C@@H](CC(=O)O)C(=O)N1CCC[C@H]1C(=O)N[C@@H](CCSC)C(=O)N[C@@H](CCC(N)=O)C(=O)N[C@@H](CC(=O)O)C(=O)O)C(C)C, the Kd was 0.404 µM (SH2 domain-containing adapter protein B, SH2 domain (SHB, Homo sapiens, UniProt Q15464); binding).
With C=CC[N+](C)(C)c1ccc(CCC(=O)CCc2ccc([N+](C)(C)CC=C)cc2)cc1 the IC50 was 1.57 µM (Acetylcholinesterase (Rhipicephalus microplus, UniProt O45210, W384F)).
With NCC(CS(=O)(=O)O)c1ccc(Cl)cc1 (stereo not shown) the Kd was about 40 µM (de novo protein S23; NMR).

A few entries again:
With CSCC[C@H](NC(=O)CNC(=O)[C@H](Cc1ccccc1)NC(=O)[C@H](CC(=O)O)NC(=O)CNC(=O)c1ccc2c(c1)C(=O)OC21c2ccc(N(C)C)cc2Oc2cc(N(C)C)ccc21)C(=O)N[C@@H](CO)C(=O)N[C@@H](CCCNC(=N)N)C(=O)N[C@@H](CC(=O)O)C(=O)N[C@H](C(=O)N[C@@H](Cc1ccc(OP(=O)(O)O)cc1)C(=O)N[C@@H](CO)C(=O)N[C@H](C(=O)N[C@@H](CC(=O)O)C(=O)N[C@@H](Cc1ccc(O)cc1)C(=O)N[C@@H](Cc1ccc(O)cc1)C(=O)N[C@@H](CCCNC(=N)N)C(=O)N[C@H](C(=O)N[C@@H](CC(=O)O)C(=O)O)C(C)C)[C@@H](C)O)C(C)C the Kd was 0.786 µM (SH2B3, SH2 domain (Homo sapiens, UniProt Q9UQQ2); binding).
With C=CC[N+](C)(C)c1ccc(CCC(=O)CCc2ccc([N+](C)(C)CC=C)cc2)cc1 the IC50 was 1.57 µM (Acetylcholinesterase (Rhipicephalus microplus, UniProt O45210, W384F)).
